# Experimental data of several laboratories.
# Every numbered part comes from another study and shows a few of its results, in no order. Substitutions count along the parent as printed.
# UniProt Q8RYC8, sequence (whole entry, looked up): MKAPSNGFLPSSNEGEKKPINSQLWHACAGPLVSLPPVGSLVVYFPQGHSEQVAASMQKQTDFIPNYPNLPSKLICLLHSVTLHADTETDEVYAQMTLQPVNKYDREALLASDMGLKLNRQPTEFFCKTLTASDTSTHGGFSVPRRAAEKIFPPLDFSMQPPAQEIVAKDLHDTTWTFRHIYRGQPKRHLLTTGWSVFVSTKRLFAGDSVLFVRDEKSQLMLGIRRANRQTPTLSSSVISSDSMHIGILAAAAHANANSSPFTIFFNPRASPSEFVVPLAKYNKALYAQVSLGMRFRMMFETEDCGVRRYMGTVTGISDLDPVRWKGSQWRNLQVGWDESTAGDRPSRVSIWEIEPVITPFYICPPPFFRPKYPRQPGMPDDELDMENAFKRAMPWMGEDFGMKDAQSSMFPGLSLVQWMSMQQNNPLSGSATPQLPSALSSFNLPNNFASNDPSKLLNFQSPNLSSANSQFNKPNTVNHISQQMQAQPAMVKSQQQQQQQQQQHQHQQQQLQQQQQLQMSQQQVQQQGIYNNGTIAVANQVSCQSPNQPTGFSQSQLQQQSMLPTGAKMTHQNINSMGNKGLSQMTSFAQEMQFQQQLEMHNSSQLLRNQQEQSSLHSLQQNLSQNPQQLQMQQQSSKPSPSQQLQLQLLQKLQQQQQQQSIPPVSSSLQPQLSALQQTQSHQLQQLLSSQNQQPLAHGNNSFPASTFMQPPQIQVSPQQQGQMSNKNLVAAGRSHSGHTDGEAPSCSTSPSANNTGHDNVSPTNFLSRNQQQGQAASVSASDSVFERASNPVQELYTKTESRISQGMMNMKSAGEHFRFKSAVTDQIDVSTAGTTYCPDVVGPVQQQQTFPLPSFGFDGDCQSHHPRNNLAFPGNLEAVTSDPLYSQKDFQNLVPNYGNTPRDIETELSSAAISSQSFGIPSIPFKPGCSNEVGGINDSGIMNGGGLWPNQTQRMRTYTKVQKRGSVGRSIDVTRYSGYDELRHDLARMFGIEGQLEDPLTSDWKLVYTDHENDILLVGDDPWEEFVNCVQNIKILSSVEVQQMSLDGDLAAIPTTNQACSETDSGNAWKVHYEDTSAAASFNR
# UniProt Q8LAL2, sequence (whole entry, looked up): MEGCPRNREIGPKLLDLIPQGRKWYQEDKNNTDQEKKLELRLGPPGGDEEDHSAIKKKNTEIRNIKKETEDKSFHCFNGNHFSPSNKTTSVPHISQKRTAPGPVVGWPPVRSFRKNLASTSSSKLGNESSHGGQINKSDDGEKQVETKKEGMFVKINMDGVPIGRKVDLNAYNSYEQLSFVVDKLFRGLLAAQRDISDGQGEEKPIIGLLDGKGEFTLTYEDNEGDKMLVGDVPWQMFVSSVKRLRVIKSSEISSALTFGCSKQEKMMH
# UniProt Q9ZSY8, sequence (whole entry, looked up): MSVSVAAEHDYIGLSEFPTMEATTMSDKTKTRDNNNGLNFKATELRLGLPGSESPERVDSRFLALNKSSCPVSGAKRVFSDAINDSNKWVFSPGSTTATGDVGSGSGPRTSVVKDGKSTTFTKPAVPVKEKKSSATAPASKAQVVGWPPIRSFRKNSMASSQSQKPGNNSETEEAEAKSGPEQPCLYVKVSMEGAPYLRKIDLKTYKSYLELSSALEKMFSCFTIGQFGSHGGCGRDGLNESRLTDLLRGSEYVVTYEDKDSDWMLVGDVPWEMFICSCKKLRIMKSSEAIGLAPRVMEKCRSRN
# UniProt P41145, sequence (whole entry, looked up): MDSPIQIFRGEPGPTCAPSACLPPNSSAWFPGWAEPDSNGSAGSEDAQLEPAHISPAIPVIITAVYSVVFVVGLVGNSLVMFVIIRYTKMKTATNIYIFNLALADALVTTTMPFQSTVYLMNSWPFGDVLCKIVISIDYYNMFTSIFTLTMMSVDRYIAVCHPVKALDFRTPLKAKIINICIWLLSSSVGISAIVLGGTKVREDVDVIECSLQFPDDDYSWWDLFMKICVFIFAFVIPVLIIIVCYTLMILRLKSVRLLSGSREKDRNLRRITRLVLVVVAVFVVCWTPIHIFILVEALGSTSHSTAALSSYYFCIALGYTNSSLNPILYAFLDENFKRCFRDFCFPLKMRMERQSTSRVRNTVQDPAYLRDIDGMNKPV
# UniProt Q38828, sequence (whole entry, looked up): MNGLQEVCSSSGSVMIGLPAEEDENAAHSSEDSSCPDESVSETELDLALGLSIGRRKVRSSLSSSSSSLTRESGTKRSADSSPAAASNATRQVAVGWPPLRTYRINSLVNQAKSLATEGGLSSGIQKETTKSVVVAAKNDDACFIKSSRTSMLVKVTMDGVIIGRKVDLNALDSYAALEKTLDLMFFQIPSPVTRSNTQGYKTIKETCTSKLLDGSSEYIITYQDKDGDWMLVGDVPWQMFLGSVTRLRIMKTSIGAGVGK

# Set 1
# Molecule: B1 (IAA3)
# Technique: two-hybrid
# Reference: out of 4 tests
# Reading: higher = firmer interaction
# B1: IAA3 (Arabidopsis thaliana, UniProt Q38822); chain MDEFVNLKETELRLGLPGTDNVCEAKERVSCCNNNNKRVLSTDTEKEIESSSRKTETSPPRKAQIVGWPPVRSYRKNNIQSKKNESEHEGQGIYVKVSMDGAPYLRKIDLSCYKGYSELLKALEVMFKFSVGEYFERDGYKGSDFVPTYEDKDGDWMLIGDVPWEMFICTCKRLRIMKGSEAKGLGCGV
partner,positive tests
"IAA26 (Arabidopsis thaliana, UniProt Q8LAL2)",1
"IAA9 (Arabidopsis thaliana, UniProt Q38827)",4
"IAA10 (Arabidopsis thaliana, UniProt Q38828)",1
"IAA27 (Arabidopsis thaliana, UniProt Q9ZSY8)",4
"ARF19 948-1086 (Arabidopsis thaliana, UniProt Q8RYC8)",4
"IAA16 (Arabidopsis thaliana, UniProt O24407)",4

# Set 2
# Target: Histone acetyltransferase KAT6A, winged helix 2, GST fusion (KAT6A, Homo sapiens, UniProt Q92794, residues 85-181)
# Technique: protein binding microarray
# Form: double-stranded DNA, one strand shown
# Sample: in vitro
# Concentration: not given
# Notes: 8-mer, flanks averaged, mean of 2 arrays, mostly near background
# Reference: not given
# Reading: higher = stronger binding
# Construct (chain): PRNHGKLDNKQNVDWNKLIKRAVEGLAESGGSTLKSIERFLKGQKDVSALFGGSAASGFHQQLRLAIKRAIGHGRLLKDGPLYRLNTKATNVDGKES
Oligonucleotide,E-score
CAGATTAC,0.0318
CGGTTAGA,-0.082
CTTGGACA,-0.0169
GCGAACCC,0.197
ACTGGAAT,-0.0751
AAAATATA,0.107
ATGCAGGG,0.0558
GAATTTGA,0.00455

# Set 3
# Target: CCND3, cyclin fold, Cln2 fusion (human)
# Technique: yeast growth competition, sequencing
# Sample: yeast
# Notes: weak parent motif
# Reference: not given
# Reading: higher = stronger binding
# Starting sequence: viral docking peptide; TSVRRALFTGGSD
Change,normalised enrichment score
TDVRRALFTGGSD [S2D],-0.193
TSVRRASFTGGSD [L7S],-0.19
TNVRRALFTGGSD [S2N],0.177
TSVRRALFTGSSD [G11S],0.0755
TSVRRSLFTGGSD [A6S],0.31
TSVRRALFAGGSD [T9A],0.116
TSVRRALFDGGSD [T9D],-0.0243
TSVRRALFTGGPD [S12P],0.0552
TSVRRAGFTGGSD [L7G],0.252
TSVRRALFTGDSD [G11D],-0.0338
TSVRRALFTGWSD [G11W],0.0136
TSVRTALFTGGSD [R5T],-0.109
TSVRRALFTGHSD [G11H],-0.116
THVRRALFTGGSD [S2H],0.158
TSWRRALFTGGSD [V3W],0.922
TSVRRRLFTGGSD [A6R],0.432
TSVRRALFTGGGD [S12G],-0.16
TSVRRALFTMGSD [G10M],-0.123
TSVRRALFTTGSD [G10T],-0.23
TSNRRALFTGGSD [V3N],-0.147
TSVKRALFTGGSD [R4K],-0.121
TSQRRALFTGGSD [V3Q],-0.178
TSVRRAYFTGGSD [L7Y],0.574
TSVRRALFFGGSD [T9F],0.625
TSVCRALFTGGSD [R4C],-0.477

# Set 4
# Target: Prothrombin, mature alpha-thrombin (F2, Homo sapiens, UniProt P00734)
# Technique: aptamer microarray, sandwich
# Form: DNA with 2'F-ANA
# Sample: in vitro
# Concentration: 200 nM
# Notes: whole 15-mer aptamer, many near background
# Added: Cy3 exosite-II aptamer, 400 nM
# Reading: higher = stronger binding
# Oligonucleotide: GGTTGGTGTGGTTGG
Modification,mean fluorescence intensity [a.u.]
2'F-ANA at 5 6 7 10 12 14,46.5
2'F-ANA at 4 9 10 11 13 14,58.9
2'F-ANA at 1 3 6 7 9 10 11,73.5
2'F-ANA at 2 3 5 6 8 12 13 14,55.8
2'F-ANA at 2 4 5 7 8 9 10 12 14 15,44.6
2'F-ANA at 1 5 8 9 11 14,49
2'F-ANA at 1 3 4 6 7 10 13 14,96.2
2'F-ANA at 1 3 4 5 6 9 10 13 14,46.8

# Set 5
# Target: Probable WRKY transcription factor 11, DNA-binding domain (WRKY11, Arabidopsis thaliana, UniProt Q9SV15, residues 228-325)
# Technique: DNA-protein interaction ELISA
# Form: double-stranded DNA, one strand shown
# Sample: in vitro, bacterial lysate
# Concentration: not given
# Notes: whole dsDNA probe, crude lysate protein
# Reference: highest signal in screen
# Reading: higher = stronger binding
# Construct (chain): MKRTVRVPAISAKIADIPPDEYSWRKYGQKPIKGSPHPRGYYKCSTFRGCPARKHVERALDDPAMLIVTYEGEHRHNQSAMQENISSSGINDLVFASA
Oligonucleotide,relative absorbance
AAAAAAACCCGTGCCTGCCTATTGCAAAAA,10.4 % of maximum
AAAAAACCAACTCTCTTTCGGACTATAAAA,16.1 % of maximum
AAAAAATTTGTTCGGGCTCATAACTGAAAA,14.1 % of maximum
AAAAAACTAGGTATCGGTAGGCGCCGAAAA,15.6 % of maximum
AAAAAATAGCGACTTCGACTCTCAGTAAAA,20.5 % of maximum
AAAAAAACTTTCTATTCTGGATAAGTAAAA,15.3 % of maximum
AAAAAATAATATCGATACTCATGCCCAAAA,17 % of maximum
AAAAAATAGACCCTGACCCACCATTGAAAA,18.2 % of maximum

# Other studies, line by line
Compound,target,assay,conditions,measurement,value
O=C(NNS(=O)(=O)c1ccccc1F)c1cc(F)cc(-c2ccccn2)c1,"Kappa-type opioid receptor (OPRK1, Homo sapiens, UniProt P41145)",cell-free assay,10 µM,inhibition,5.23%

# A few entries again (set 4):
Modification,mean fluorescence intensity [a.u.]
2'F-ANA at 1 3 6 7 9 10 11,73.5
2'F-ANA at 2 3 5 6 8 12 13 14,55.8
2'F-ANA at 2 4 5 7 8 9 10 12 14 15,44.6
2'F-ANA at 1 5 8 9 11 14,49
2'F-ANA at 1 3 4 6 7 10 13 14,96.2
2'F-ANA at 1 3 4 5 6 9 10 13 14,46.8
